Experimental data from different studies.
Numbers after ± are the reported error.

`COc1ccc2c(c1OCc1ccccc1)C[C@@H](C(=O)O)N(c1nc3ccc(C#N)cc3o1)C2` gave a scaled CLint of 26 mL/min/kg (metabolic stability; human, hepatocytes; 1 µM).
`CC(NC(=O)OC1OC(C(=O)O)C(O)C(O)C1O)c1cc(Cl)ccc1Cn1c(=S)[nH]c(=O)c2[nH]ccc21` (centres unmarked) has an exposure ratio of 0.7 (dog, both sexes, plasma; oral, 100 mg/kg/day; reference: dog over human 15 mg).
`O=c1c(-c2ccccc2)c[nH]n1-c1ccccn1` has a chromatographic logD of 2.7 (HPLC; pH 7.5).
`COc1cc(NC(C)=O)c2c(c1O)-c1c(OC)c(OC)cc3c1C(C2)N(C)CC3` (centres unmarked) gave a remaining compound of 101 ± 2.6% (rat brain homogenate; 50 µg/mL, time not given, three freeze-thaw cycles).
For `CC[C@H](C)[C@H](NC(=O)[C@H](CCCCN)NC(=O)[C@H](CS)NC(=O)[C@H](C)NC(=O)[C@H](CC(N)=O)NC(=O)[C@H](CCCNC(=N)N)NC(=O)[C@H](CCCNC(=N)N)NC(=O)[C@H](CC(N)=O)NC(=O)[C@H](CCCNC(=N)N)NC(=O)[C@H](CCCNC(=N)N)NC(=O)[C@H](C)NC(=O)[C@H](CS)NC(=O)[C@H](CO)NC(=O)[C@@H](NC(=O)[C@@H](NC(=O)[C@H](CS)NC(=O)[C@H](CCCCN)NC(=O)[C@@H](N)CCCNC(=N)N)C(C)C)[C@@H](C)CC)C(=O)N[C@@H](CC(C)C)C(=O)N[C@@H](CS)C(=O)N[C@@H](CC(N)=O)C(=O)O`, the two-disulfide form was 63% (LC/MS; PBS; 0.1 mg/mL; reference: LC peak area).
`COc1cc(C)c(Cc2ccc(O)cc2)cc1[C@@H]1S[C@H](CO)[C@@H](O)[C@H](O)[C@H]1O` gave an AUC(0-inf) of 306 ± 63.8 ng·h/mL (Japanese T2DM patients, plasma; 5 mg luseogliflozin, day 1, once daily).
`CC[C@H](C)[C@@H]1NC(=O)[C@H](Cc2ccccc2)NC(=O)[C@@H](NC(=O)[C@H](CCCNC(=N)N)NC(=O)[C@H](Cc2ccccc2)NC(=O)[C@H](Cc2ccccc2)NC(=O)[C@H](CCCCN)NC(=O)[C@H](CO)NC(=O)[C@H](CC(C)C)NC(=O)[C@H](CCCNC(=N)N)NC(=O)[C@H](CCSC)NC(=O)[C@H](C)N)CCCCNC(=O)NC[C@@H](C(=O)N[C@@H](CCCNC(=N)N)C(=O)N[C@@H](CCCCN)C(=O)N[C@@H](CCCCN)C(=O)O)NC(=O)[C@H](CC(C)C)NC1=O` gave a helicity of 16.9% (circular dichroism; 20% TFE in PBS; 200 µM, pH 7.4, 25 °C).
For `CC(C)c1cnc(-c2cc(Cl)ccc2F)cc1Nc1ccncc1C(=O)NC(CO)CO`, “patients with related SAE” read 0% (refers to: pyrexia; human patients; oral, dose not given, grade 4).
`Cn1c(=O)oc2ccc(-c3ccc(CC(C#N)NC(=O)C4CNCCCO4)c(F)c3)cc21` (centres unmarked) — result for “treatment-emergent adverse event incidence”: 7.4% (refers to: mouth ulceration; human volunteers; oral).
`N=C(N)NCCC[C@@H]1NC(=O)[C@H](Cc2c[nH]c3ccccc23)NC(=O)[C@@H](CC2CCCCC2)NC(=O)[C@@H]2CCCN2C(=O)[C@@H](NC(=O)CCc2ccccc2)CCCNC1=O` gave an MRT(0-last) of 0.75 h (C57BL/6J mouse, plasma brain; oral, 1 mg/kg single dose).
`COc1ccc(S(=O)(=O)N2CCc3ccccc3C2)cc1N1CCN(C(=O)c2ccc(F)cc2C(F)(F)F)CC1` gave a concentration of 77.9 ng/mL (rat, plasma; intravenous, 10 mg/kg, 3 h, single dose).
For `CC(C)(C)NCC(SS(=O)(=O)O)c1ccccc1` (centres unmarked), the oral bioavailability was 0.085 (Swiss Webster mouse, female, plasma; oral, AUC to infinity, unit not given; reference: PO over IV, dose-normalised).
`COc1cc(C2CCC(c3[nH]c(=O)[nH]c(=O)c3Cc3cccc(C(F)(F)F)c3)CC2)ccc1O` (centres unmarked): “share of plasma radioactivity” no less than 10% (14C label; cynomolgus monkey; oral, 80 mg/kg).
`CC(C)(Sc1ccncc1-c1ccc(C#N)c2ccccc12)C(=O)OC1OC(C(=O)O)C(O)C(O)C1O` (centres unmarked) has an AUC(0-inf) increase of 213% (adult men, plasma; oral, 15 mg verinurad, moderate renal impairment; reference: normal renal function).
`CC(=O)N[C@@H](CC(N)=O)C(=O)NCC(=O)N[C@@H](CCCNC(=N)N)C(=O)N[C@@H](C)C(N)=O` — result for “half-life of Asn form”: 87.2 h (1H NMR; sodium phosphate buffer 50 mM; pH 7.4, 28 °C).
`O=C([O-])CN1CCN(CC(=O)[O-])CCN(CC(=O)NCC2CCC(C(=O)NC(Cc3ccc4ccccc4c3)C(=O)NCCCCC(NC(=O)NC(CCC(=O)O)C(=O)O)C(=O)O)CC2)CCN(CC(=O)[O-])CC1.[44Sc+3]` (centres unmarked): “organ absorbed dose” 0.229 mSv/MBq (PET/CT dosimetry, OLINDA/EXM; human, liver).
`O=C(O)C1OC(OC2C(COS(=O)(=O)O)OC(OC3C(C(=O)O)OC(OC4C(COS(=O)(=O)O)OC(OC5C(C(=O)O)OC(OC6C(COS(=O)(=O)O)OC(OC7C(C(=O)O)OC(OC8C(COS(=O)(=O)O)OC(OC9C(C(=O)O)OC(OC%10C(COS(=O)(=O)O)OC(OC%11C(C(=O)O)OC(Oc%12ccc([N+](=O)[O-])cc%12)C(O)C%11O)C(NS(=O)(=O)O)C%10O)C(OS(=O)(=O)O)C9O)C(NS(=O)(=O)O)C8O)C(OS(=O)(=O)O)C7O)C(NS(=O)(=O)O)C6O)C(OS(=O)(=O)O)C5O)C(NS(=O)(=O)O)C4O)C(OS(=O)(=O)O)C3O)C(NS(=O)(=O)O)C2OS(=O)(=O)O)C(O)C(O)C1OC1OC(COS(=O)(=O)O)C(O)C(O)C1NS(=O)(=O)O` (centres unmarked): “organ-to-body weight ratio” 3.04 ± 0.11 (rat, liver; intravenous, 3600 µg/kg per day, 7 days, day 8).
`CCCCCCCCCCCCCCCC(=O)N[C@@H](CCCCNC(=O)[C@H](CCCCNC(=O)CCC(=O)NCCN(C)CCNc1ccnc2cc(C(F)(F)F)ccc12)NC(=O)CCC(=O)NCCN(C)CCNc1ccnc2cc(C(F)(F)F)ccc12)C(=O)N[C@@H](CS)C(=O)NCC(=O)NCC(=O)NCC(=O)N[C@@H](C)C(=O)N[C@@H](CCCNC(=N)N)C(=O)N[C@@H](CCCCN)C(=O)N[C@@H](CCCCN)C(=O)N[C@@H](C)C(=O)N[C@@H](C)C(=O)N[C@@H](CCCCN)C(=O)N[C@@H](C)C(=O)N[C@@H](C)C(=O)N[C@@H](CCCNC(=N)N)C(=O)N[C@@H](CCCCN)C(=O)N[C@@H](CCCCN)C(=O)N[C@@H](C)C(=O)N[C@@H](C)C(=O)N[C@@H](CCCCN)C(=O)N[C@@H](C)C(=O)N[C@@H](C)C(=O)N[C@@H](CCCNC(=N)N)C(=O)N[C@@H](CCCCN)C(=O)N[C@@H](CCCCN)C(=O)N[C@@H](C)C(=O)N[C@@H](C)C(=O)N[C@@H](CCCCN)C(=O)N[C@@H](C)C(=O)N[C@@H](C)C(=O)N[C@@H](CCCNC(=N)N)C(=O)N[C@@H](CCCCN)C(=O)N[C@@H](CCCCN)C(=O)N[C@@H](C)C(=O)N[C@@H](C)C(=O)N[C@@H](CCCCN)C(=O)N[C@@H](C)C(N)=O` gave a zeta potential of 14.9 ± 4.2 mV (water; 40 min, 25 °C, 140:1 ratio, with: siRNA).
`C[C@H](NC(=O)c1ccc2c(c1)C(=O)OC21c2ccc(O)cc2Oc2cc(O)ccc21)C(=O)N[C@@H](CCCCN)C(=O)N[C@@H](C)C(=O)N[C@@H](CCCCN)C(=O)N[C@@H](C)C(=O)N[C@@H](CCCCN)C(=O)N[C@@H](C)C(=O)N[C@@H](CCCCN)C(=O)N[C@@H](C)C(=O)N[C@@H](CCCCN)C(=O)N[C@@H](C)C(=O)N[C@@H](CCCCN)C(=O)N[C@@H](C)C(=O)N[C@@H](CCCCN)C(=O)N[C@@H](C)C(=O)N[C@@H](CC(N)=O)C(=O)N[C@@H](C)C(=O)N[C@@H](CC(N)=O)C(=O)N[C@@H](C)C(=O)N[C@@H](CC(N)=O)C(=O)O` — result for “cartilage uptake ratio”: 15 (bovine, healthy cartilage explants; 30 µM, 24 h, 37 °C, 5-FAM labelled; reference: tissue over bath concentration).
The MRT(0-t) of `CN1CCC(N[C@@H]2CCc3[nH]c4c(C(N)=O)ccc(-c5ccccc5Cl)c4c3C2)CC1` is reported as 4.15 h (mouse, plasma; intravenous, 2 mg/kg).
The concentration of `CN(C1COC1)C(C)(C)/C=C(\C#N)C(=O)N1CCC[C@H]1Cn1nc(-c2ccc(Oc3ccccc3)cc2F)c2c(N)ncnc21` is reported as 3 ng/mL (female Sprague-Dawley rat, plasma; oral, 40 mg/kg, 14 h).
`Cc1ccc(/N=N/c2c(O)ccc3ccccc23)c(C)c1` gave a measured concentration of 15.9 µg/L (rat whole blood QC samples; 16.0 µg/L, 8 h, room temperature, short-term stability).
`COc1ccc(/C=C/c2ccc(-c3ccc(C)cn3)nc2)cc1` — result for “radiative decay rate constant”: 0.35 ns⁻¹ (TCSPC; MeOH).
For `COCC1CN(C2CCN(c3cc(OC)c(Nc4ncc(Br)c(Nc5ccc6c(c5P(C)(C)=O)OCCO6)n4)cc3C)CC2)C1`, “accumulation ratio of AUC” read 2.1 to 4.7 (human, plasma; oral, 10 to 150 mg multiple doses, 21 days).
`NC(=O)c1ccc(C(=O)NOCc2ccc(Sc3cccc(Cl)c3)c(C(F)(F)F)c2)cc1` has an oral bioavailability of 10.6% (male ICR mouse, plasma; oral, 60 mg/kg).
`CCc1nc(-c2ccc(-c3ccc(CCC(N)(CO)CO)cc3)cc2)co1`: heart rate “no effect” (Sprague-Dawley rat; oral, 10 mg/kg, single dose).

Repeated from above:
`CC(NC(=O)OC1OC(C(=O)O)C(O)C(O)C1O)c1cc(Cl)ccc1Cn1c(=S)[nH]c(=O)c2[nH]ccc21` (centres unmarked) has an exposure ratio of 0.7 (dog, both sexes, plasma; oral, 100 mg/kg/day; reference: dog over human 15 mg).
`COc1cc(C2CCC(c3[nH]c(=O)[nH]c(=O)c3Cc3cccc(C(F)(F)F)c3)CC2)ccc1O` (centres unmarked): “share of plasma radioactivity” no less than 10% (14C label; cynomolgus monkey; oral, 80 mg/kg).
For `CC(C)(C)NCC(SS(=O)(=O)O)c1ccccc1` (centres unmarked), the oral bioavailability was 0.085 (Swiss Webster mouse, female, plasma; oral, AUC to infinity, unit not given; reference: PO over IV, dose-normalised).
`COc1ccc(S(=O)(=O)N2CCc3ccccc3C2)cc1N1CCN(C(=O)c2ccc(F)cc2C(F)(F)F)CC1` gave a concentration of 77.9 ng/mL (rat, plasma; intravenous, 10 mg/kg, 3 h, single dose).
